Assay results from different studies.
Compare with care: the assays were run in different laboratories.
Partner: itself
B1: pnp 1-763 R431A (Mycobacterium smegmatis, UniProt A0QVQ5); chain MSVVELEDGVYESTAVIDNGSFGTRTIRFETGRLAQQAAGSAVAYLDDETMLLSATTASKNPKDHFDFFPLTVDVEERMYAAGRIPGSFFRREGRPSTDAILTCRLIDRPLRPSFVDGLRNEIQVVVTVMSLDPKDLYDVLAINAASMSTQLAGLPFSGPVGGARIALIDGTWVAFPTVEQLERAVFDMVVAGRIVGDGDSADVAIMMVEAEATENVVELVAGGAQAPTEAVVAEGLEAAKPFIKALCAAQQELADRAAKPAGEYPVFPDYEADVYDAVASVATEALAEALTIAGKTERNDRTDEIKVEVLERLAEPYAGREKEIGAAFRSLTKKLVRQRILTDHFRIDGRGITDIRALSAEVAVIPRAHGSALFERGETQILGVTTLDMIKMAQQIDSLGPENTKRYMHHYNFPPYSTGETGRVGSPKRAEIGHGALAERALVPVLPSIEEFPYAIRQVSEALGSNGSTSMGSVCASTLALLNAGVPLKAPVAGIAMGLVSDDVDVDGKVEKRYVALTDILGAEDAFGDMDFKVAGTKDFVTALQLDTKLDGIPSQVLAGALSQAKDARLTILDVMAEAIDRPDEMSPYAPRITTIKVPVDKIGEVIGPKGKMINSITEETGAQISIEDDGTVFVGAADGLSAQAAIDKINAIANPQLPKVGERFLGTVVKTTDFGAFVSLLPGRDGLVHISKLGKGKRIAKVEDVVKVGDKLRVEIADIDNRGKISLVLVAEESAESAESAGDKGAEKAEGAAADVTPAEA
B2: hipA 2-437 D309Q (Escherichia coli, UniProt P23874); chain PKLVTWMNNQRVGELTKLANGAHTFKYAPEWLASRYARPLSLSLPLQRGNITSDAVFNFFDNLLPDSPIVRDRIVKRYHAKSRQPFDLLSEIGRDSVGAVTLIPEDETVTHPIMAWEKLTEARLEEVLTAYKADIPLGMIREENDFRISVAGAQEKTALLRIGNDWCIPKGITPTTHIIKLPIGEIRQPNATLDLSQSVDNEYYCLLLAKELGLNVPDAEIIKAGNVRALAVERFDRRWNAERTVLLRLPQEDMCQTFGLPSSVKYESDGGPGIARIMAFLMGSSEALKDRYDFMKFQVFQWLIGATQGHAKNFSVFIQAGGSYRLTPFYDIISAFPVLGGTGIHISDLKLAMGLNASKGKKTAIDKIYPRHFLATAKVLRFPEVQMHEILSDFARMIPAALDNVKTSLPTDFPENVVTAVESNVLRLHGRLSREY
B3: ureR N170D (Escherichia coli, UniProt P32326); chain MEYKFFLSESQMVLKAFYIESAMIAMLTGAKGNIVINGQSIEIESDVTLIIPKYSQVSCNIVCNTVKQPLELHTLSMSAEELQAVFLLLKTLMKSGAPLTSHQPIYHISPPETVRDNFSLLKQCLPLKKQSASQEALLMKQSLYFILMAIYQEGIDILNLFRFNYDEPKDQAITHLITQEPQKKWHLDDVAKALFTTPSTLRRHLNREGVSFRQLLLDVRMGMALNYLTFSNYSVFQISHRCGFGSNAYFCDVFKRKYNMTPSQFRLQSRQSNDPNFITNLSLRSNPIEFDKEIDE
B4: ThcOx 1-473 (Cyanothece sp. PCC 7425); chain GGGGMLDLFTLSFSPDLSIASEAEQLTLQSKDDRLILEHPQPGLRTALEQLKQGNLTLAQLTELVSEQDGVEAGITFASELEKLVDLGWICHSVLPLITAIPIAKDYELNVPDSSWQTTAIALSRFAFLHQDLQQLVLESPRSKSKLVILDWRVGAVIAKLAQSDRGFIFATSADSLLADLSLELEELKRLFALLIATQMMDLEPEDETITQWKFHNLLFHHYTRLGRLDNSRKLNLPVFEHRDRYPYVKPVISTQAIPLVKPDLTALATTDMTLTEAIETRRSIREYSDQPITLAQLGEFLYRCARVKAVYTLPEDPMQVGESTTRPYPSGGALYELEIYPLVHQCGDLAAGLYHYQPLSHTLHPVADWTPEVESLVYDAWRATGQQSIPQIVLIITARFGRLFWKYHDIAYSLILKHVGVLYQTFYLVATAMQLAPSAIGAGNTTKFCQIAGLNPDEEASVGEFSLGAAKPQQQS
B5: mpr E155A (Mycobacterium smegmatis, UniProt Q50442); chain MTTPQPYPGMPSQPAPQGVPYPPQQPAKKKRKWPAIVGGVIALMIVGSIFNDDKKDTTPAENTATVAQAPAAAPTKEVPETTATINTPVRDGKFEFVVRSVEPGLSEVGDNPFLNQKAQGQFVIVTLSVQNIGDRPQGFSPSNQKLFDTEGRSFATDTSAQIALDNNDIAVWDNINPGNTVDVSLVYDMPVDAVPASIELHDSMFSGGVTVNLTP
B6: pnp 1-763 D532A (Mycobacterium smegmatis, UniProt A0QVQ5); chain MSVVELEDGVYESTAVIDNGSFGTRTIRFETGRLAQQAAGSAVAYLDDETMLLSATTASKNPKDHFDFFPLTVDVEERMYAAGRIPGSFFRREGRPSTDAILTCRLIDRPLRPSFVDGLRNEIQVVVTVMSLDPKDLYDVLAINAASMSTQLAGLPFSGPVGGARIALIDGTWVAFPTVEQLERAVFDMVVAGRIVGDGDSADVAIMMVEAEATENVVELVAGGAQAPTEAVVAEGLEAAKPFIKALCAAQQELADRAAKPAGEYPVFPDYEADVYDAVASVATEALAEALTIAGKTERNDRTDEIKVEVLERLAEPYAGREKEIGAAFRSLTKKLVRQRILTDHFRIDGRGITDIRALSAEVAVIPRAHGSALFERGETQILGVTTLDMIKMAQQIDSLGPENTKRYMHHYNFPPYSTGETGRVGSPKRREIGHGALAERALVPVLPSIEEFPYAIRQVSEALGSNGSTSMGSVCASTLALLNAGVPLKAPVAGIAMGLVSDDVDVDGKVEKRYVALTDILGAEDAFGDMAFKVAGTKDFVTALQLDTKLDGIPSQVLAGALSQAKDARLTILDVMAEAIDRPDEMSPYAPRITTIKVPVDKIGEVIGPKGKMINSITEETGAQISIEDDGTVFVGAADGLSAQAAIDKINAIANPQLPKVGERFLGTVVKTTDFGAFVSLLPGRDGLVHISKLGKGKRIAKVEDVVKVGDKLRVEIADIDNRGKISLVLVAEESAESAESAGDKGAEKAEGAAADVTPAEA
B7: higA 1-104 (Proteus vulgaris, UniProt Q7A224); sequence looked up; chain MRQFKVSHPGEMIARDLEDMGVSGRRFAHNIGVTPATVSRLLAGKTALTPSLSIRIAAALGSTPEFWLRLQSNYDLRQLENQIDTSGIVLYGESNEQQQNAQEH
B8: NFR5 276-595 L290E/L291E (Lotus japonicus, UniProt Q70KR1); chain ALNRTASSAETADKEESGVSGYVSKPNVYEIDEIMEATKDFSDECKVGESVYKANIEGRVVAVKKIKEGGANEELKILQKVNHGNLVKLMGVSSGYDGNCFLVYEYAENGSLAEWLFSKSSGTPNSLTWSQRISIAVDVAVGLQYMHEHTYPRIIHRDITTSNILLDSNFKAKIANFAMARTSTNPMMPKIDVFAFGVLLIELLTGRKAMTTKENGEVVMLWKDMWEIFDIEENREERIRKWMDPNLESFYHIDNALSLASLAVNCTADKSLSRPSMAEIVLSLSFLTQQSSNPTLERSLTSSGLDVEDDAHIVTSITAR
B9: pnp 1-763 F68A (Mycobacterium smegmatis, UniProt A0QVQ5); chain MSVVELEDGVYESTAVIDNGSFGTRTIRFETGRLAQQAAGSAVAYLDDETMLLSATTASKNPKDHFDAFPLTVDVEERMYAAGRIPGSFFRREGRPSTDAILTCRLIDRPLRPSFVDGLRNEIQVVVTVMSLDPKDLYDVLAINAASMSTQLAGLPFSGPVGGARIALIDGTWVAFPTVEQLERAVFDMVVAGRIVGDGDSADVAIMMVEAEATENVVELVAGGAQAPTEAVVAEGLEAAKPFIKALCAAQQELADRAAKPAGEYPVFPDYEADVYDAVASVATEALAEALTIAGKTERNDRTDEIKVEVLERLAEPYAGREKEIGAAFRSLTKKLVRQRILTDHFRIDGRGITDIRALSAEVAVIPRAHGSALFERGETQILGVTTLDMIKMAQQIDSLGPENTKRYMHHYNFPPYSTGETGRVGSPKRREIGHGALAERALVPVLPSIEEFPYAIRQVSEALGSNGSTSMGSVCASTLALLNAGVPLKAPVAGIAMGLVSDDVDVDGKVEKRYVALTDILGAEDAFGDMDFKVAGTKDFVTALQLDTKLDGIPSQVLAGALSQAKDARLTILDVMAEAIDRPDEMSPYAPRITTIKVPVDKIGEVIGPKGKMINSITEETGAQISIEDDGTVFVGAADGLSAQAAIDKINAIANPQLPKVGERFLGTVVKTTDFGAFVSLLPGRDGLVHISKLGKGKRIAKVEDVVKVGDKLRVEIADIDNRGKISLVLVAEESAESAESAGDKGAEKAEGAAADVTPAEA
B10: mpr G120A (Mycobacterium smegmatis, UniProt Q50442); chain MTTPQPYPGMPSQPAPQGVPYPPQQPAKKKRKWPAIVGGVIALMIVGSIFNDDKKDTTPAENTATVAQAPAAAPTKEVPETTATINTPVRDGKFEFVVRSVEPGLSEVGDNPFLNQKAQAQFVIVTLSVQNIGDRPQGFSPSNQKLFDTEGRSFETDTSAQIALDNNDIAVWDNINPGNTVDVSLVYDMPVDAVPASIELHDSMFSGGVTVNLTP
B11: NEFL (Bos taurus, UniProt P02548); sequence looked up; chain MSSFSYEPYYSTSYKRRYVETPRVHISSVRSGYSTARSAYSSYSAPVSSSLSVRRSYSSSSGSLMPSLESLDLSQVAAISNDLKSIRTQEKAQLQDLNDRFASFIERVHELEQQNKVLEAELLVLRQKHSEPSRFRALYEQEIRDLRLAAEDATNEKQALQGEREGLEETLRNLQARYEEEVLSREDAEGRLMEARKGADEAALARAELEKRIDSLMDEIAFLKKVHEEEIAELQAQIQYAQISVEMDVSSKPDLSAALKDIRAQYEKLAAKNMQNAEEWFKSRFTVLTESAAKNTDAVRAAKDEVSESRRLLKAKTLEIEACRGMNEALEKQLQELEDKQNADISAMQDTINKLENELRTTKSEMARYLKEYQDLLNVKMALDIEIAAYRKLLEGEETRLSFTSVGSLTTGYTQSSQVFGRSAYGGLQTSSYLMSARSFPSYYTSHVQEEQIEVEETIEAAKAEEAKDEPPSEGEAEEEEKEKEEAEAEAEAEAEAEAEEEEGAQEEEAAKEDAEEAKEEEGGEGEEAEETKEAEEEEKKDEGAGEEQATKKKD
B12: coat protein 2-133 (bacteriophage Qβ, UniProt P03615); chain AKLETVTLGNIGKDGKQTLVLNPRGVNPTNGVASLSQAGAVPALEKRVTVSVSQPSRNRKNYKVQVKIQNPTACTANGSCDPSVTRQAYADVTFSFTQYSTDEERAFVRTELAALLASPLLIDAIDQLNPAY
B13: protein R140A (Pseudomonas putida, UniProt A0ABM7EIE4); sequence looked up; chain MLRILLIDDTQHKLGRLKAALIEAGFEVTEAPGLTIDLPACVETVRPDVVLIDTDSPDRDVMEQVVLVSRDQPRPIVLFTDEHDPGVMRQAIQAGVSAYIVEGIHAARLQPILDVAMARFESDQALKAQLVARDQQLAEAKRIEQAKGLLMKMKDCNEEQAYTLMRRQAMSRQQKLIQVAEQIIAMHEMLG
B14: pomB 1-315 D24N (Vibrio alginolyticus, UniProt O06874); chain MDDEDNKCDCPPPGLPLWMGTFANLMSLLMCFFVLLLSFSEMDVLKFKQIAGSMKFAFGVQNQLEVKDIPKGTSIIAQEFRPGRPEPTPIDVIMQQTMDITQQTLEFHEGESDRAGGTKRDEGKLTGGQSPATSTQNNESAEADMQQQQSKEMSQEMETLMESIKKALEREIEQGAIEVENLGQQIVIRMREKGAFPEGSAFLQPKFRPLVRQIAELVKDVPGIVRVSGHTDNRPLDSELYRSNWDLSSQRAVSVAQEMEKVRGFSHQRLRVRGMADTEPLLPNDSDDNRALNRRVEISIMQGEPLYSEEVPVIQ
Sequence of UniProt Q9UBH6 (whole entry, looked up): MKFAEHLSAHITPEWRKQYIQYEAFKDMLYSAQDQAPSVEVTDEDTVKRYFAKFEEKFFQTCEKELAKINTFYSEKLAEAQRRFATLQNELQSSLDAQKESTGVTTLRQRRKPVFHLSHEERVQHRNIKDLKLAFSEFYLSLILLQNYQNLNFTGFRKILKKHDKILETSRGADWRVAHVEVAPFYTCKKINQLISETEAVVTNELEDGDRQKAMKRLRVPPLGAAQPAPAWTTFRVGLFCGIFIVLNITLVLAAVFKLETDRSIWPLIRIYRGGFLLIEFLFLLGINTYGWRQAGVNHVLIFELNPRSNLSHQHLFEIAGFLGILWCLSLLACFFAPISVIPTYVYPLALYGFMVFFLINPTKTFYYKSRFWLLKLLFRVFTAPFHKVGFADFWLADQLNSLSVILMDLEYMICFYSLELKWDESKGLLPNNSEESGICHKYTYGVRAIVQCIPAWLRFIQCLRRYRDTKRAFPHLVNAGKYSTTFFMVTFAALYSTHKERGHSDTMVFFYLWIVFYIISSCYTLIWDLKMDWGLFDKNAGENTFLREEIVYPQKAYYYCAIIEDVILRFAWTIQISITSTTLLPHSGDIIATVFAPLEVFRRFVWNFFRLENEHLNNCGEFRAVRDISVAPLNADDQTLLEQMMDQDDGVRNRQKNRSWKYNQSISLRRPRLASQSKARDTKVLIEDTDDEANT

`B1 (pnp 1-763 R431A)`: binding “binds” (SEC).
`B2 (hipA 2-437 D309Q)` — result for binding: “binds” (crystal structure).
`B3 (ureR N170D)` — result for binding: “binds” (SEC).
For `B4 (ThcOx 1-473)`, binding read “binds” (crystal structure).
For `B5 (mpr E155A)`, binding read “binds” (cross-linking; added: GTP).
`B6 (pnp 1-763 D532A)`: binding “binds” (SEC).
`B7 (higA 1-104)`: binding “binds” (X-ray crystallography).
For `B8 (NFR5 276-595 L290E/L291E)`, binding read “binds” (dynamic light scattering).
For `XPR1 (Homo sapiens, UniProt Q9UBH6)`, binding read “binds” (cryo-EM).
For `B9 (pnp 1-763 F68A)`, binding read “binds” (SEC).
`B10 (mpr G120A)` — result for binding: “binds” (cross-linking; added: GTP).
For `B11 (NEFL)`, binding read “binds” (electron microscopy).
`B12 (coat protein 2-133)`: binding “binds” (transmission electron microscopy).
Under binding, `B13 (protein R140A)` is recorded as “binds” (SEC).
`B14 (pomB 1-315 D24N)` — result for binding: “binds” (cryo-EM structure).
`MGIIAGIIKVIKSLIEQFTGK (psmA1 (Staphylococcus aureus, UniProt H9BRQ5); N-terminal formyl; sequence looked up)` — result for binding: “binds” (cryo-EM; peptide).

Repeated from above:
For `B9 (pnp 1-763 F68A)`, binding read “binds” (SEC).
`B10 (mpr G120A)` — result for binding: “binds” (cross-linking; added: GTP).
